Results of several laboratories.
Protocols differ between the studies behind these lines. ± marks the error that the study gave.

The Cmax of `COc1cc(C)c(Cc2ccc(O)cc2)cc1[C@@H]1S[C@H](CO)[C@@H](O)[C@H](O)[C@H]1O` is reported as 4.13 ± 0.554 ng/mL (Japanese T2DM patients, plasma; 2.5 mg luseogliflozin, day 1, once daily).
`C[Si]1(C[C@H](CN)CC(=O)O)CCCC1` has a Cmax of 39.6 µM (male Sprague-Dawley rat, plasma; oral, 30 mg/kg, single dose).
For `CCCCCCc1ccc(Oc2ccccc2C#N)c(O)c1`, the Cmax was 790 ng/mL (CD-1 mice, plasma; subcutaneous, dose not given).
For `O=C(OCc1cccc(O)c1O)c1ccc(O)c(CO)c1`, the Cmax was < 0.01 µM (mice, serum; intraperitoneal, 2.5 mg/kg/day).
The Cmax of `C[Si](C)(C)C[C@H](CN)CC(=O)O` is reported as 125 µM (male Sprague-Dawley rat, plasma; oral, 30 mg/kg, single dose).
For `Cc1ccc(OCC(=O)N(Cc2cccs2)c2ccn[nH]2)cc1`, the Cmax was 33.1 ng/mL (female Sprague-Dawley rat, plasma; oral, 30 mg/kg, single dose).
With `CC1=C(/C=C/C(=O)N2CCN(C(N)=O)CC2)C(C)(C)CCC1` the Cmax was 4.69 nmol/g (male mice, plasma; oral, 20 mg/kg).
For `CCc1c2c(nc3ccc(O)cc13)-c1cc3c(c(=O)n1C2)COC(=O)[C@]3(O)CC`, the Cmax was 154 ng/mL (human patients, plasma; intravenous, 56 mg/m^2 of parent drug).
With `CCc1cc(Nc2nc(-c3ccc(-n4cnc(C)c4)c(F)c3)cs2)c(C)cc1C` the Cmax was 496 ng/mL (human, both sexes, plasma; oral, 200 mg, day 1, multiple dose, geometric mean).
`N=C(N)NCCC[C@@H]1NC(=O)[C@H](Cc2c[nH]c3ccccc23)NC(=O)[C@@H](CC2CCCCC2)NC(=O)[C@@H]2CCCN2C(=O)[C@@H](NC(=O)CCc2ccccc2)CCCNC1=O` has a Cmax of 450 ng/g (C57BL/6J mice, spinal cord; intravenous, 1 mg/kg).
For `C[C@@H]1Cc2c([nH]c3ccccc23)[C@@H](c2c(F)cc(/C=C/C(=O)O)cc2F)N1C12CC(C1)C2`, the Cmax was 2070 ng/g (BALB/c nude mice MCF-7 xenograft, tumour; oral, 10 mg/kg).
`CC=C1C(OC2OC(CO)C(O)C(O)C2O)OC=C(C(=O)OC)C1CC(=O)OCC1OC(OCCc2ccc(O)cc2)C(O)C(O)C1O` (centres unmarked) has a Cmax of 2310 ng/mL (pseudo-germfree mice, plasma; oral, 109.2 mg/kg).
With `O=C(O)/C=C/c1cccc(S(=O)(=O)Nc2ccccc2)c1` the Cmax was 2240 ng/mL (patients with severe liver dysfunction, plasma; intravenous, 400 mg/m^2 belinostat, single 30 min infusion, cycle 1 day -7, mean).
For `Cn1c(=O)oc2ccc(-c3ccc(CC(C#N)NC(=O)C4CNCCCO4)c(F)c3)cc21` (centres unmarked), the Cmax was 435 ng/mL (human volunteers, plasma; 60 mg single dose, fasted, geometric mean).
For `CC(C)(C)ONc1nc(Nc2ccnc(C(F)(F)F)c2)nc(-c2cccc(C(F)(F)F)n2)n1`, the Cmax was 4720 ng/mL (female Balb/cA nude mice xenograft, plasma; oral, 54.14 mg/kg).
The Cmax of `CSCOC1C(=O)C2(C)C(OCSC)CC3OCC3(OC(C)=O)C2C(OC(=O)c2ccccc2)C2(O)CC(OC(=O)C(O)C(C=C(C)C)NC(=O)OC(C)(C)C)C(C)=C1C2(C)C` (centres unmarked) is reported as 1390 ng/mL (female Sprague-Dawley rat, plasma; intravenous, 4 mg/kg).
With `CC(C)(Sc1ccncc1-c1ccc(C#N)c2ccccc12)C(=O)OC1OC(C(=O)O)C(O)C(O)C1O` (centres unmarked) the Cmax was 33.3 ng/mL (plasma; oral, 15 mg, mild renal impairment, fasted).

Excerpt of the above:
For `O=C(OCc1cccc(O)c1O)c1ccc(O)c(CO)c1`, the Cmax was < 0.01 µM (mice, serum; intraperitoneal, 2.5 mg/kg/day).
